Results of several laboratories.
A part holds a random share of what one study measured.

Sample 1
Target: POU, POU domain (Salpingoeca helianthica)
Technique: Spec-seq
Form: double-stranded DNA, one strand shown
Sample: in vitro
Tested at: not given
Notes: whole probe, mean of replicates
Relative to: not given
Direction: lower = stronger binding
Construct (chain): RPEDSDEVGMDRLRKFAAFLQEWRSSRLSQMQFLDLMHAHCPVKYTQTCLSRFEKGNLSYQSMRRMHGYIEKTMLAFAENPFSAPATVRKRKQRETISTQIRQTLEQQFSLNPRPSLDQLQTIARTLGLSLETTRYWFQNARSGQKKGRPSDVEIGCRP
Under “relative binding energy”, `GAGTCGTCTCGTCAGCACATTCATATCCGTAGAGCACTCAGGTC` is recorded as 0.718 ln ratio.
`GAGTCGTCTCGTCAGCACATCTTTATCCGTAGAGCACTCAGGTC`: “relative binding energy” 0.352 ln ratio.
`GAGTCGTCTCGTCAGCACATGCCCAGCCGTAGAGCACTCAGGTC`: “relative binding energy” 1.48 ln ratio.

Sample 2
Target: RNA binding protein fox-1 homolog 2, RRM domain, GST-SBP tag (RBFOX2, Homo sapiens, UniProt O43251-10, residues 100-194)
Technique: RNA Bind-n-Seq
Form: RNA
Sample: in vitro
Tested at: 365 nM
Notes: natural RNA segment, single round, ends assumed
Relative to: no-protein control
Direction: higher = stronger binding
For `GGGAGUUCUACAGUCCGACGAUCUGGAUUUGGGACCUACAAUACUCCUCAGGUUGAGAUAUUCUUGAAGUUUUAAAAUAGCUUUAGUUUUUAAAGUAAACUGGAUUUGUGGACCUUAAAGUUACUGAGUUUAAUGGAAUUCUCGGGUGCCAA`, “RBNS enrichment (R)” read 0.544.
Under “RBNS enrichment (R)”, `GGGAGUUCUACAGUCCGACGAUCUUGCUGAGGAUAAGGGCAUACACGCUGCUCCUCGCUUUCUUGUUGCCCGACUUCGUACUAAGCAGCUCAGGAGCAGUCACUCAGACCCAAAUGUCUUGACUGUGUUGUUUUGGAAUUCUCGGGUGCCAA` is recorded as 0.464.
Under “RBNS enrichment (R)”, `GGGAGUUCUACAGUCCGACGAUCUUAGGUAUCAGAAGAUUUUGCCUUAUUCUGAGGUCGGACUAGGGCCAAGCAAGCUUUUUCCUUCAUAUGAGCUGUCAUACUGUAUUUUGACCUCUUUCUGCACGAAAAAAUGGAAUUCUCGGGUGCCAA` is recorded as 1.56.

Mixed results
KAT6A winged helix 2, GST fusion: Histone acetyltransferase KAT6A, winged helix 2, GST fusion (KAT6A, Homo sapiens, UniProt Q92794, residues 85-181)
The E-score of `AGCTGTGA` is reported as 0.0147 (KAT6A winged helix 2, GST fusion; protein binding microarray; double-stranded DNA, one strand shown, in vitro; not given, 8-mer, flanks averaged, mean of 2 arrays, mostly near background; relative to: not given, higher = stronger binding).
`PhoQ, residues 284 288 289 292 302 303 SLKLQV` has a fold induction of 8.7 (PhoP, residues 12 14 15 18 19 FWNTL (Escherichia coli, UniProt P23836); Sort-seq, item: YFP reporter; E. coli; PhoQ-PhoP variant library, with: 10 µM Mg2+; relative to: high Mg2+ state, higher = stronger signaling).
`GAGAAATC` has an E-score of 0.0418 (KAT6A winged helix 2, GST fusion; protein binding microarray; double-stranded DNA, one strand shown, in vitro; not given, 8-mer, flanks averaged, mean of 2 arrays, mostly near background; relative to: not given, higher = stronger binding).
With `ACGACTCC` the E-score was -0.0707 (KAT6A winged helix 2, GST fusion; protein binding microarray; double-stranded DNA, one strand shown, in vitro; not given, 8-mer, flanks averaged, mean of 2 arrays, mostly near background; relative to: not given, higher = stronger binding).
